Results of several laboratories.
Protocols differ between the studies behind these lines. ± gives the spread as reported.
Cell line: A498

Structure (SMILES)	effect on	method	concentration	time	relative to	endpoint	value
COc1cc(CNC(=O)C[C@H](C)CCC=C(C)C)ccc1OCc1cn(-c2ccc(Cl)c(Cl)c2)nn1		SRB	10 µM	48 h		growth percent	80%
O=C([O][Ti+2][O]C(=O)c1ccc([P+]([Au-][Cl])(c2ccccc2)c2ccccc2)cc1)c1ccc([P+]([Au-][Cl])(c2ccccc2)c2ccccc2)cc1.c1cc[cH-]c1.c1cc[cH-]c1	cell viability	XTT		72 h		IC50	6.9 µM
Nc1ncnc2c1ncn2CCN1C(=O)/C(=N\N=C2/NC(=O)CS2)c2cc(F)ccc21	cell growth or viability	SRB		72 h		IC50	191 µM
COc1cc(CNC(=O)C[C@H](C)CCC=C(C)C)ccc1OCc1cn(-c2ccc(Cl)cc2Cl)nn1		SRB	10 µM	48 h		growth percent	59%
NC1CCCCC1N.O=C(CCCc1ccccc1)[O][Pt]1([O]C(=O)CCCc2ccccc2)[O]C(=O)C(=O)[O]1	cell growth			72 h		IC50	9.32 ± 1.07 µM
CCC(=C(c1ccc(Cl)cc1)c1ccc(OCCCN(C)C)cc1)c1ccc(OC)cc1	cell growth or viability					GI50	5.5 µM
COc1cc(CNC(=O)C[C@H](C)CCC=C(C)C)ccc1OCc1cn(-c2ccccc2F)nn1		SRB	10 µM	48 h		growth percent	103%
CCCC(CCC)C(=O)[O][Pt]([Cl])([Cl])[O]C(C)=O.N.N	cell growth			72 h		IC50	4.21 ± 0.95 µM
CC/C=C\C/C=C\C/C=C\C/C=C\C/C=C\C/C=C\CCC(=O)Nc1ccn(C2OC(CO)C(O)C2(F)F)c(=O)n1 (stereo not shown)	cell growth or viability	SRB				GI50	0.0855 µM
COc1cc(CNC(=O)C[C@H](C)CCC=C(C)C)ccc1OCc1cn(-c2cccc([N+](=O)[O-])c2)nn1		SRB	10 µM	48 h		growth percent	91.3%
CC(=O)OC[C@H]1O[C@@H](Sc2sc(C(=O)c3ccc(C)cc3)c(N)c2-c2nc3ccccc3s2)[C@H](OC(C)=O)[C@@H](OC(C)=O)[C@H]1OC(C)=O		SRB	10 µM	48 h	untreated	growth	53.4%
N.N.O=C(CCCc1ccccc1)[O][Pt]([Cl])([Cl])[O]C(=O)CCCc1ccccc1	cell growth			72 h		IC50	0.43 ± 0.02 µM
COc1cc(CNC(=O)C[C@H](C)CCC=C(C)C)ccc1OCc1cn(-c2ccc(C#N)cc2)nn1		SRB	10 µM	48 h		growth percent	92.3%
CCCC(CCC)C(=O)[O][Pt]([Cl])([Cl])[O]C(=O)C(CCC)CCC.N.N	cell growth			72 h		IC50	2.43 ± 0.72 µM
O=C1Nc2ccccc2/C1=N\Nc1nnc2n1N=C(c1ccc(Cl)cc1)CS2	cell growth or viability	SRB	10 µM			inhibition	18%
O=C(O)CCCc1ccccc1	cell growth or viability			72 h		IC50	925 µM
O=C(O)c1ccc([P+]([Au-][Cl])(c2ccccc2)c2ccccc2)cc1	cell viability	XTT		24 h		IC50	36.1 µM
COc1cc(CNC(=O)C[C@H](C)CCC=C(C)C)ccc1OCc1cn(-c2ccc(F)cc2)nn1		SRB	10 µM	48 h		growth percent	136%
O=C1C(=NN=c2[nH]ccs2)c2cc(Cl)ccc2N1CCn1ncc2c(=O)[nH]cnc21	cell growth or viability	SRB		72 h		IC50	5.13 µM

A few entries again:
Structure (SMILES)	effect on	method	concentration	time	relative to	endpoint	value
CCC(=C(c1ccc(Cl)cc1)c1ccc(OCCCN(C)C)cc1)c1ccc(OC)cc1	cell growth or viability					GI50	5.5 µM
COc1cc(CNC(=O)C[C@H](C)CCC=C(C)C)ccc1OCc1cn(-c2ccccc2F)nn1		SRB	10 µM	48 h		growth percent	103%
